Measured values from different studies.
Lines come from different studies, so protocols differ. Numbers after ± are the reported error.

C[C@@H](NC(=O)[C@@H](Cc1ccccc1)NC(=O)[C@@H](Cc1c[nH]cn1)NC(=O)[C@@H](Cc1ccc(O)cc1)NC(=O)[C@@H](CCC(=O)O)NC(=O)[C@@H](CO)NC(=O)[C@H](N)CCC(N)=O)C(=O)O — heart rate (rabbit, AT1R autoantibody-immunised hypertension; iv, 1 mg/kg, 6 weeks immunisation): 140 ± 8 bpm
CC(=O)[O-].Nc1ccc(C([O-])=NN=Cc2ccc(OCC(=O)Nc3ccc(Cl)cc3)cc2)cc1.O.O.O.[Cu+2] — inhibition (ABTS radical scavenging, ABTS; concentration not given, 6 min): 74.7%
CCc1nnc(NS(=O)(=O)c2ccc(NC(=S)NC(=O)/C=C/c3ccc(F)cc3)cc2)s1 — cleaved caspase-3 level (NXS2 allograft, A/J mice, tumour; intraperitoneal, 20 mg/kg daily, 3 weeks; relative to: vehicle): increased
CCCCC[C@H](O)/C=C/[C@@H]1[C@@H](C/C=C\CCCC(=O)O)[C@H]2CO[C@@H]1C2 — Emax (platelet aggregation, agonist, light transmission aggregometry; human platelet-rich plasma): 84.1 ± 2.7%
N[C@@H](CCC(=O)O)C(=O)N1CCC[C@H]1C(=O)NCC(=O)NCC(=O)O — ΔG‡ at 298.15 K (diketopiperazine formation, Arrhenius plot, ESI-MS; 1-propanol; 70, 80, 90 °C, 0.5% acetic acid): 22.5 ± 3.59 kcal/mol
C[C@H](NC(=O)COC(=O)[C@H](C)NC(=O)CO)C(=O)O — depolymerization rate constant (water; pH 5, 25 °C): 0.016 h⁻¹
CCCCCCCCCn1cc(C(N)(CO)CO)nn1 — tau hyperphosphorylation (refers to: AT8 epitope; APP/PS1 mouse; dose not given): decreased
COc1c2c(cc3oc(CO)cc(=O)c13)O[C@H](C(C)(C)O)C2 — hot plate latency (analgesia; mouse; oral, 4 mg/kg, 1 h): 13.2 ± 3.28 s
NCCCC[C@H](N)C(=O)N1CCC[C@H]1C(=O)NCC(=O)NCC(=O)O — ΔG‡ at 298.15 K (diketopiperazine formation, Arrhenius plot, ESI-MS; 1-propanol; 70, 80, 90 °C, 0.5% acetic acid): 23.4 ± 6.21 kcal/mol
CCN(C(=O)c1cc(F)ccc1Oc1nncnc1N1CCC2(C1)CN([C@H](CCCN(C)CCOC)C(C)C)C2)C(C)C — increase in lifespan (mouse, KMT2A-AF6 AML PDX; all dose levels; relative to: vehicle): > 89%
C=C(c1ccc(C(=O)O)c(F)c1)c1cc2c(cc1C)C(C)(C)C=CC2(C)C — log2 fold change (RNA sequencing, refers to: Pdk4; rat, brain; dose not given, 24 h; relative to: vehicle): -0.61
C=C1C[C@@]23CC[C@H]4[C@@](C)(CCC[C@@]4(C)C(=O)O[C@@H]4O[C@H](CO)[C@@H](O)[C@H](O)[C@H]4O)[C@@H]2CC[C@]1(O[C@@H]1O[C@H](CO[C@H]2O[C@H](CO)[C@@H](O)[C@H](O)[C@H]2O)[C@@H](O)[C@H](O)[C@H]1O[C@@H]1O[C@H](CO)[C@@H](O)[C@H](O)[C@H]1O)C3 — protein level (immunoblot, refers to: FAS; C57BL/6N mouse, high-fat diet, liver; drinking water, 0.2 g/L, 16 weeks): decreased
CCCCCCCCCCCCCCCC(=O)N[C@@H](CCC(=O)NCCCC[C@H](NC(=O)[C@H](CC(=O)O)NC(=O)[C@H](CO)NC(=O)[C@@H](NC(=O)[C@H](Cc1ccccc1)NC(=O)[C@@H](NC(=O)CNC(=O)[C@H](CCC(N)=O)NC(=O)[C@H](CO)NC(=O)[C@@H](N)Cc1c[nH]cn1)[C@@H](C)O)[C@@H](C)O)C(=O)N[C@@H](CO)C(=O)N[C@@H](CCC(=O)O)C(=O)N[C@@H](Cc1ccc(O)cc1)C(=O)N[C@@H](CC(C)C)C(=O)N[C@@H](CC(=O)O)C(=O)N[C@@H](CO)C(=O)N[C@@H](CCC(=O)O)C(=O)N[C@@H](CCCNC(=N)N)C(=O)N[C@@H](C)C(=O)N[C@@H](CCCNC(=N)N)C(=O)N[C@@H](CC(=O)O)C(=O)N[C@@H](Cc1ccccc1)C(=O)N[C@H](C(=O)N[C@@H](C)C(=O)N[C@@H](Cc1c[nH]c2ccccc12)C(=O)N[C@@H](CC(C)C)C(=O)N[C@@H](CCC(=O)O)C(=O)N[C@@H](C)C(=O)NCC(=O)NCC(=O)O)C(C)C)C(=O)O — cumulative food intake (diet-induced obese mouse; subcutaneous, 10 nmol/kg daily, end of treatment): 53 g
COC(=O)N[C@H]1CC[C@@H](Nc2cc(NCc3ccccc3F)n3ncc(C(C)C)c3n2)CC1 — tumour [18F]FLT uptake decrease (PET; mice with HCT-116 xenograft; 15 mg/kg twice daily, 48 h; relative to: vehicle): 1.4 fold
CC(C)(O)c1ccc(N2Cc3c(ccnc3-c3ccc(F)cc3OCC(F)(F)F)C2=O)cc1 — glucosylceramide level (Gaucher disease mouse model, plasma; 30 mg/kg, single dose; relative to: vehicle): 79 ± 3%
CC[C@H](C)[C@H](N)C(=O)N1CCC[C@H]1C(=O)NCC(=O)NCC(=O)O — ΔG‡ at 298.15 K (diketopiperazine formation, Arrhenius plot, ESI-MS; 1-propanol; 70, 80, 90 °C, 0.5% acetic acid): 22.7 ± 1.43 kcal/mol
Cc1nc(C)c(C=[N+]([O-])C(C)(C)C)nc1C — protein level increase (Western blot, refers to: Nrf2; mouse, MPTP model, substantia nigra cytosol; 30 mg/kg): 85.3%
CC(=O)N[C@@H](CC(N)=O)C(=O)NCC(=O)N[C@@H](CCCNC(=N)N)C(=O)N[C@@H](C)C(N)=O — rate constant succinimide to β-Asp (1H NMR; sodium phosphate buffer 50 mM; pH 7.4, 28 °C): 0.107 h⁻¹
C=CC[C@H]1OC(=O)CCNC(=O)[C@H](C)N(C)C(=O)[C@H]([C@@H](C)CC)N(C)C(=O)[C@H]([C@@H](C)CC)NC(=O)[C@@H]2[C@@H](C)CCN2C1=O — protein phosphorylation (immunohistochemistry, refers to: p-PDGFR-β; mouse bile duct ligation fibrosis, liver; 5 to 10 mg/kg/day, 8 days from day 6): decreased
N[C@@H](CCC(=O)N[C@@H](CS[Se]Cc1ccc(-c2cc(C(F)(F)F)nn2-c2ccc(S(N)(=O)=O)cc2)cc1)C(=O)NCC(=O)O)C(=O)O — decrease in tumour volume (nude mouse, UACC-903 xenograft; i.p., 0.127 µmol alternate days, 4 weeks; relative to: vehicle): ≤ 70%
O=C([O-])CN1CCN(CC(=O)[O-])CCN(CC(=O)NC[C@H]2CC[C@H](C(=O)N[C@H](Cc3cnc4ccccc4c3)C(=O)NCCCC[C@H](NC(=O)N[C@@H](CCC(=O)O)C(=O)O)C(=O)O)CC2)CCN(CC(=O)[O-])CC1.[64Cu+2] — mean SUVmax (PET/CT; patients suspected prostate cancer, lymph node lesions; 2 h post-injection): 7.93 ± 3.83
COc1ccc2nc3ccc(OC)cc3c(SCCCN)c2c1 — Ki67-positive cells (EO771, C57BL/6 mouse allograft; dose not given, 2 weeks): decreased
CC(C)(CCCC/C=C/CCCCCC(C)(C)C(=O)O)C(=O)O — reduction in plasma TC (rhesus monkey, spontaneous hyperlipidemia; 20 mg/kg, 2 weeks; relative to: baseline): 31.8%
CCNS(=O)(=O)c1ccc(COc2ccc3nc4ccc(=O)cc-4oc3c2)cc1 — lung colonisation (4T1 GFP/luc, BALB/cJ mouse, tail vein injection; intravenous, 10 mg/kg daily, 7 days): decreased
CC(C)(O)c1ncc([S@](N)(=O)=NC(=O)Nc2c3c(cc4c2CCC4)CCC3)s1 — inhibition (IL-1β release; healthy humans, whole blood ex vivo; oral, 100 mg once daily, 24 h, steady state, maintained, crystalline tablets): ~90%
CCCCCCOC(=O)Cc1c(C)n(C(=O)c2ccc(Cl)cc2)c2ccc(OC)cc12 — latency of nociceptive response (hot plate test; BALB/c mice; 100 mg/kg, 120 min): 16.8 ± 0.54 s
O=C(Nc1ccc(C(F)(F)F)cc1Cl)c1cc(Cl)ccc1O — tumour Ki67, AR-V7 and HSP70 (immunohistochemistry; mice relapsed VCaP xenograft; dose not given): inhibited
COc1ccc(C2CC(c3ccc(C)cc3)=Nc3ccccc3S2)cc1 (stereo not drawn) — blood glucose (rat, normal, overnight fasted; oral, 20 mg/kg, 120 min, oral glucose tolerance test, together with: glucose 3 g/kg oral): 113 ± 4.13 mg/dL
CC[C@H](C)[C@H](NC(=O)[C@H](CCCCN)NC(=O)[C@H](CC(N)=O)NC(=O)CNC(=O)[C@@H](NC(=O)[C@H](C)NC(=O)[C@H](CCCNC(=N)N)NC(=O)[C@H](CC(C)C)NC(=O)[C@H](CCCCN)NC(=O)[C@H](CCCCN)NC(=O)[C@H](CCCCN)NC(=O)[C@H](C)NC(=O)[C@H](CCCCN)NC(=O)[C@@H]1CSSC[C@H](NC(=O)[C@H](CCCNC(=N)N)NC(=O)CN)C(=O)N[C@@H](CC(N)=O)C(=O)N[C@@H](CC(C)C)C(=O)N[C@@H](CC(C)C)C(=O)N1)C(C)C)C(=O)N[C@@H](CCCCN)C(=O)N[C@@H](CCC(=O)O)C(=O)N[C@H](C(=O)N[C@@H](CCCCN)C(=O)N[C@@H](CC(N)=O)C(=O)N[C@H](C(=O)N[C@H](C(=O)N[C@@H](Cc1ccccc1)C(=O)N[C@@H](CC(N)=O)C(=O)N[C@@H](CCCNC(=N)N)C(=O)O)C(C)C)C(C)C)[C@@H](C)CC — cytokine level (refers to: MCP-1; BALB/c mice, CLP-induced sepsis, serum and lung; intraperitoneal, 5 mg/kg, 12 h post-surgery; relative to: vehicle): decreased
COc1cc(Cn2ccc3cc(C(=O)NCC45CC6CC(CC(C6)C4)C5)ccc32)ccc1C(=O)NO — microglia IBA1 intensity (immunohistochemistry; 5xFAD mice, brain; intraperitoneal, 10 mg/kg daily, 2 months; relative to: vehicle): decreased

For quick reference, copied from above:
CC(=O)N[C@@H](CC(N)=O)C(=O)NCC(=O)N[C@@H](CCCNC(=N)N)C(=O)N[C@@H](C)C(N)=O — rate constant succinimide to β-Asp (1H NMR; sodium phosphate buffer 50 mM; pH 7.4, 28 °C): 0.107 h⁻¹
C=CC[C@H]1OC(=O)CCNC(=O)[C@H](C)N(C)C(=O)[C@H]([C@@H](C)CC)N(C)C(=O)[C@H]([C@@H](C)CC)NC(=O)[C@@H]2[C@@H](C)CCN2C1=O — protein phosphorylation (immunohistochemistry, refers to: p-PDGFR-β; mouse bile duct ligation fibrosis, liver; 5 to 10 mg/kg/day, 8 days from day 6): decreased
N[C@@H](CCC(=O)N[C@@H](CS[Se]Cc1ccc(-c2cc(C(F)(F)F)nn2-c2ccc(S(N)(=O)=O)cc2)cc1)C(=O)NCC(=O)O)C(=O)O — decrease in tumour volume (nude mouse, UACC-903 xenograft; i.p., 0.127 µmol alternate days, 4 weeks; relative to: vehicle): ≤ 70%
